# Published values collected from several papers.
# ± marks the error that the study gave.
SMILES,assay,test system,setting,quantity,value
CCNc1nc(N2CC(=O)Nc3cc(OC)ccc32)c2ncccc2n1,,mouse liver microsomes,"1 µg/mL, 1 mg protein/mL, with: NADPH",intrinsic clearance,373 µL/min/mg
CC(C)C[C@H](NC(=O)[C@H](Cc1ccccc1)NC(=O)[C@H](Cc1ccccc1)NC(=O)Cc1ccc(-c2ccccc2)cc1)C(=O)N[C@@H](CCCCN)C(=O)N[C@@H](CCCNC(=N)N)C(=O)N[C@H](C(=O)N[C@@H](Cc1c[nH]c2ccccc12)C(=O)N[C@@H](CCCCN)C(=O)N[C@@H](CCCNC(=N)N)C(=O)O)C(C)C,,human liver microsomes,,intrinsic clearance,70.3 mL/min/kg
CC(C)(C)[C@H](NC(=O)C(F)(F)F)C(=O)N1C[C@H]2[C@@H]([C@H]1C(=O)N[C@H](C#N)C[C@@H]1CCNC1=O)C2(C)C,,human liver microsomes,microsomes 0.5 mg/mL,intrinsic clearance,34.5 µL/min/mg
O=C/C=C/c1ccccc1,phase II metabolic stability,human liver S9 fraction,"10 µM, pH 7.4, with: UDPGA",intrinsic clearance (scaled),358 ± 14 mL/min/kg
CCCCCCCCCN(C)C,RT-S9 substrate depletion,rainbow trout,non-shaken incubation,intrinsic clearance in vivo,166 mL/h/g liver
COc1ccc(S(=O)(=O)N2CCCCC2)cc1C,,mouse liver microsomes,,intrinsic clearance,39 mL/min
C[C@]12CC[C@H]3[C@@H](CC=C4CC(O)CC[C@@]43CO)[C@@H]1CCC2O (stereo partly drawn),,human liver microsomes,,intrinsic clearance,19.2 µL/min/mg protein
C[C@]12CC[C@H]3[C@@H](CCC4=CC(=O)CC[C@@]43C)[C@@H]1CC[C@@H]2O,,mouse liver microsomes,microsomes 0.5 mg/mL,intrinsic clearance,393 µL/min/mg
C[C@H]1COCCN1c1nc(NCc2cccnc2C(F)(F)F)c2cccnc2n1,,human hepatocytes,,intrinsic clearance,3.1 µL/min/10⁶ cells
